Measurements collected from several papers.
Each numbered part is a random draw from the data of one study; scales do not carry over between parts.

Sample 1
Target: RING finger protein unkempt homolog, zinc fingers 1-6, GST-SBP tag (UNK, Homo sapiens, UniProt Q9C0B0, residues 30-357)
Sequence of UniProt Q9C0B0 (30-357, looked up): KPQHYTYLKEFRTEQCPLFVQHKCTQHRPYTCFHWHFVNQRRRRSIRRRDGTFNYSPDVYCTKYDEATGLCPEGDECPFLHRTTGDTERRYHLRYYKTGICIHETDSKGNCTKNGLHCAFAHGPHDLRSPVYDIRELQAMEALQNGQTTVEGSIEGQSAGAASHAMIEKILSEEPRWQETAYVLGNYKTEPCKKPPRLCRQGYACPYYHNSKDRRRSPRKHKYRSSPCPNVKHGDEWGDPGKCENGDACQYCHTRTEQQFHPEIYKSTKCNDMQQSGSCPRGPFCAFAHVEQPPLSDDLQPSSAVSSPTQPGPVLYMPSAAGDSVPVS
Method: RNA Bind-n-Seq
Molecule type: RNA
Sample: in vitro
Concentration: not given
Notes: RNA with constant flanks, human and mouse sites, ends assumed
Baseline: input RNA pool
Direction: higher = stronger binding
Quantity: bound/input enrichment
Shared flanks, not repeated: GGGAGUUCUACAGUCCGACGAUC … CAACAGAGGAUUGAGCAUCA
UCAAAAUUCUUCUCUGCCUACAAAAGUCAUUUCCGCAAUGUCCAUAGUGAAGACUUUGAAAAUAGGAUUCUCCUUAAUUGCCCCUACUGUACCUUCAAUGCAGACAAAAAGACUUUGGAA: 0.161 ratio
GUAGCCUUAUAUGAAGAACCAGAGAAGCCCACCAGUGCUCUGGAUUUUUUAAAGCAUCACUUAGGAGCUGCUACCCCGGAAAACCCAGAAAUAGAGCUGCUUCGCCUAGAAUUGGCAGAA: 0.781 ratio
AAAAUAAAAAUGCAAAUGGUGGAGAAAAAUAUGGAACAACAAAAAGAAAACAUGGAGAAUCUUAAAAGUCUAAAAAUUGAAGCAGAAAAUAAGUAUGAUACAAUUAAAUUGAAGAUUAAU: 0.681 ratio
CAAAGCAACCUUUCCCUUCCCCCGAGUGAUUUUGCGAAACCCCCUUUUCCCUUCAGCUUGCUUAGAUGUUCCAAAUUUAGAAAGCUUAAGGCGGCCUACAGAAAAAGGAAAAAAGGCCAC: 1.5 ratio
GCGACCGAGCCAGUCAAAGAUGCAGAUCCUCAUUUUCAUCAUUUUCUGUUGAGCCAAACAGAGAAGCCAGCUGUCUGUUACCAGGCAAUCACAAAGAAGUUGAAAAUAUGUGAAGAGGAA: 0.587 ratio
AUAACGUGUAAAGCUCACUCUUUCACCCUGGAACAGACAAGAGGUGGGCUUAAUAGAGGCAGAGACUGGGGAUAUACCUUUGUUUCCCUAGCAUUUUUAUUUAUUUAUUUUUAUUUUAUU: 353 ratio
UACUGUACCUCCACCCUGCGCCACUUCUUGCCUCUACUGGAAAGAAGUCAAGGAGAAGAUAUAGAAGACGACCACAGGGCAGAGCUGUUGAAGCAGCUGGGGGACUACAGGUUCUCUGGA: 0.122 ratio
AAUCAAGUUCUAUUCCAGACUAACGGUGGGCCUGGGCUUUAUAUUUUUAUGUAAACUAUUUUUAGACUGGAGGAUUUGGUUUUCAGAGGAAAGCUUUACGCAUAAUUAAACCAUGGGAGU: 1.43 ratio

Sample 2
Target: Interferon regulatory factor 7, full length, phosphomimetic (IRF7, Homo sapiens, UniProt Q92985, residues 1-503, S471D/S472D/S475D/S476D/S477D/S483D/S484D/S487D)
Method: protein-binding microarray
Molecule type: double-stranded DNA, one strand shown
Sample: in vitro
Concentration: 2200 nM top
Notes: 60-bp whole probe
Together with: salmon DNA 0.4 mg/ml
Baseline: random background probes
Direction: higher = stronger binding
Quantity: fitted relative affinity
Shared flanks, not repeated: GCCTAGCAC … GTCTTGATTCGCTTGACGCTGCTG
Residues (chain): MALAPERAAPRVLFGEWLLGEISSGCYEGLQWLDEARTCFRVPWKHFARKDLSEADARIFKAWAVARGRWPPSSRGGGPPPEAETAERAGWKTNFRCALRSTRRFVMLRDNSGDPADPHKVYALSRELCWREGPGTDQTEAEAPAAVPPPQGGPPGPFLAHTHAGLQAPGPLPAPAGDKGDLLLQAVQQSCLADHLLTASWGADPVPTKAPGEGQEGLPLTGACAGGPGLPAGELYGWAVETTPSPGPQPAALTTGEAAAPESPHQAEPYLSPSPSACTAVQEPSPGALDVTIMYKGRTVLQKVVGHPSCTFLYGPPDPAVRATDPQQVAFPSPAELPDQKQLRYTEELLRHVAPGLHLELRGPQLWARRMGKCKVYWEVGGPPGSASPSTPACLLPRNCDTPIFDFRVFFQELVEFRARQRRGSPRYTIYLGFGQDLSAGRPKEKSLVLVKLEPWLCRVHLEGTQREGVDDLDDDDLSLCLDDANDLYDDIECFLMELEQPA
TTAGAACTGAGCCTCGATTAGTGCTAG: -0.461 z-score
TTTGGTATCGGGACTGGGTTAGTGCTA: 0.409 z-score
GACGATCTCAGTATCGAGGCGTGCTAG: 0.0287 z-score
GAAGGTTTCGGACTGGGGACGTGCTAG: 3 z-score
AGAGTAAATTAAGTTAGAACGTGCTAG: -1.44 z-score
TCTGTTTTCGCTTTCTTTAAGTGCTAG: 12.5 z-score
TCATTTCTACTTCTGTTACTGTGCTAG: 3.21 z-score
GACGATCACAGACTGGAGACGTGCTAG: -0.139 z-score
GACGAACTGAGTATCGACACGTGCTAG: 0.1 z-score
CTGTCTGAGGACACCCTGGCGTGCTAG: -0.185 z-score
GACAGTATCCTTATCCTGACGTGCTAG: 0.902 z-score
TCAGGACTGGGTTTCGGTTAGTGCTAG: 3.92 z-score
GACTGACTGGGGACTGGGGACGTGCTA: -0.41 z-score
GCCGAACTGGGGTATCGAGACGTGCTA: -0.446 z-score
TTAGGACTGCTTATCCTTTAGTGCTAG: 0.212 z-score
TTAGTTCTGAGTCTTCCCTTGTGCTAG: 0.951 z-score
GACGATCTCAGTCTAGAGACGTGCTAG: -0.139 z-score
AGGCATCTCGGAGATCTCGAAGTGCTA: -0.651 z-score
GACGGTTTCGGATTTCGGGACGTGCTA: 7.06 z-score

Sample 3
Target: RNA binding protein fox-1 homolog 2, RRM domain, GST-SBP tag (RBFOX2, Homo sapiens, UniProt O43251-10, residues 100-194)
Method: RNA Bind-n-Seq
Molecule type: RNA
Sample: in vitro
Concentration: 365 nM
Notes: natural RNA segment, single round, ends assumed
Baseline: no-protein control
Direction: higher = stronger binding
Quantity: RBNS enrichment (R)
Shared flanks, not repeated: GGGAGUUCUACAGUCCGACGAUC … UGGAAUUCUCGGGUGCCAA
Target sequence (chain): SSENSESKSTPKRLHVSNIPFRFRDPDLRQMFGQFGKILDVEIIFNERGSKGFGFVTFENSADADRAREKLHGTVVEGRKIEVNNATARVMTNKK
AGAUACAUUCUUUUAGGGAAGUGUAUGGUCAACAUAUAUUUACUCAGUAUACAGAUAACCACAAAGUUGUUAUUUUUAACCAAAAUAUACAUUUCAUAAUGUUGGCACUG: 0.261
AUUGUCCUGUGUUUUUAUAGCACCCAAAUCAUUCUAAAAUAUGAACAUCUAAAAACUUUGCUAGGAGACUAAGAACCUUUGGAGAGAUAGAUAUAAGUACGGUCAAAAAA: 0.531
UCUGUUUCCCCUUUUUCCUUUUUUUUUUUAAUUAAAGAGCAAAGCUUUUUAUUACUUUGUAAUUUAAAAAACUGAAAAAAAAAAAACUGAAGAACUUUGGGGGGAAUUUU: 0.785
AUUCUGGGCUUGUAUAAUGCCUGUUGAUCUUGCCCUCUUAAUCAGUUUAUUGUUAUUCACAAAUGCAAAUAGGUUUUCAAACUACAGACAGUUUUGAAAGACAUUAAUUC: 0.27
CACACACCCCUCCGGACAUCCAGCGUGACGGAGCCCACACUGCCACCUUGUGGCCGCCUGAGACCCUCGCGCCCCCCGCGCCCCUCUUUUUCCCCUUGAUGGAAAUUGAC: 0.315
UCUGGUACUUGUAUUUUCUAUGUUAAAUGAUCUUUAUAUGUGUUGGAUUAACAAAUAUUUUGAGUUUCCUGAAAACAAACAGAAACAUUAAUGGUAUUGAAGUGUGUUAG: 0.357
GAAGGCCUGGGAACAGGAGUGUGCAGGCUGUCCUGAAGAGAGGCUGAGGACAGUGUGAAUAAUUGUAGCCUGACCUUUUGCAUUCUCCAGCUCAGCUGCUAGGAAGACUU: 0.578
AUGCGUGAGCCUCCAAGGCACAGCCCAGGGAAGCCUCCCCAGAGUCAGGUAACAACCAGAUGGCUUCACUGAAACCUGCUUUUGUAAAUUACUUUUUUUUACUGUUGCUG: 0.331

Sample 4
Target: Ras GTPase-activating protein-binding protein 1, full length (G3BP1, Homo sapiens, UniProt Q13283)
Sequence of UniProt Q13283 (whole entry, looked up): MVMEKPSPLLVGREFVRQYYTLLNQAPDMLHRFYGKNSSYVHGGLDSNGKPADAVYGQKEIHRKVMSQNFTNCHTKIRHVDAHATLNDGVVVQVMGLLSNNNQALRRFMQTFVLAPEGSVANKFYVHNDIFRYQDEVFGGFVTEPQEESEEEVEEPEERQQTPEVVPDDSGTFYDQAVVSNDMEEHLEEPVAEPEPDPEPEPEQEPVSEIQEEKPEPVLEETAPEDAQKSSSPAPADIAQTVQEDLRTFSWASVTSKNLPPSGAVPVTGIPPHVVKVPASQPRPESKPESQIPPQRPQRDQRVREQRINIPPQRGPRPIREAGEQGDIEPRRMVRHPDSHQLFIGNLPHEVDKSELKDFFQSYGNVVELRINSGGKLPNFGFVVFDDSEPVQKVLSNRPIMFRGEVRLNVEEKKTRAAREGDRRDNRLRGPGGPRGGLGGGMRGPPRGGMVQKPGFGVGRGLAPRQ
Method: RNA Bind-n-Seq
Molecule type: RNA
Sample: in vitro
Concentration: 200 nM
Notes: whole 134-nt RNA, ends assumed
Together with: 150 mM KCl
Baseline: input library
Direction: higher = stronger binding
Quantity: log2 enrichment
Shared flanks, not repeated: GGGAGUUCUACAGUCCGACGAUC … UGGAAUUCUCGGGUGUCAAGG
AGUCCUGUGCUACACAUCGUAUGUACCGAAUCGGGGAAAAGGAAAAGGGGAAAAGGGAAAGUAUUAUGUUACGCCGUUCGGAUCUGCACU: -0.244
CAAGUCCUGUGCUACACAUCGUAUGUACCGAAUCGGGGUUUGGGGUUUGGGUUUGGAAAGUAUUAUGUUACGCCGUUCGGAUCUGCACUU: -0.187
CUCAAGUCCUGUGCUACACAUCGUAUGUACCGAAUCGGAAGGGAAGGGAAGGGAAAGUAUUAUGUUACGCCGUUCGGAUCUGCACUUCCA: 0.522
CCUCAAGUCCUGUGCUACACAUCGUAUGUACCGAAUCGGAGGAAAAAGGAGGAAAGUAUUAUGUUACGCCGUUCGGAUCUGCACUUCCAG: 0.0323
UGGCCCUGGUGGCAUGCGGGGAGGAAGAGGUGGCCUCAUGGAUCGUGGAGGUCCCGGUGGAAUGUUCAGAGGUGGCCGUGGUGGAGACAG: 0.811
UCAAGUCCUGUGCUACACAUCGUAUGUACCGAAUCGGGUGGGUUUGGGUUUGGGAAAGUAUUAUGUUACGCCGUUCGGAUCUGCACUUCC: 0.882
AAGUCCUGUGCUACACAUCGUAUGUACCGAAUCGGGUUUGGGUUUGGGUUUUUGGGAAAGUAUUAUGUUACGCCGUUCGGAUCUGCACUU: 0.0243
AAGUCCUGUGCUACACAUCGUAUGUACCGAAUCGGGAAAGGGAAAGGGAAAAAGGGAAAGUAUUAUGUUACGCCGUUCGGAUCUGCACUU: -0.0945
UCCUGUGCUACACAUCGUAUGUACCGAAUCGGGUUUGGGUUUUUUUGGGUUUUUUUGGGAAAGUAUUAUGUUACGCCGUUCGGAUCUGCA: -0.116

Repeated from above (sample 4):
CCUCAAGUCCUGUGCUACACAUCGUAUGUACCGAAUCGGAGGAAAAAGGAGGAAAGUAUUAUGUUACGCCGUUCGGAUCUGCACUUCCAG: 0.0323
UGGCCCUGGUGGCAUGCGGGGAGGAAGAGGUGGCCUCAUGGAUCGUGGAGGUCCCGGUGGAAUGUUCAGAGGUGGCCGUGGUGGAGACAG: 0.811
UCAAGUCCUGUGCUACACAUCGUAUGUACCGAAUCGGGUGGGUUUGGGUUUGGGAAAGUAUUAUGUUACGCCGUUCGGAUCUGCACUUCC: 0.882
AAGUCCUGUGCUACACAUCGUAUGUACCGAAUCGGGUUUGGGUUUGGGUUUUUGGGAAAGUAUUAUGUUACGCCGUUCGGAUCUGCACUU: 0.0243
